Results collected from several papers.
Every numbered part comes from another study and shows a few of its results, in no order.
UniProt Q9BUB5, sequence (whole entry, looked up): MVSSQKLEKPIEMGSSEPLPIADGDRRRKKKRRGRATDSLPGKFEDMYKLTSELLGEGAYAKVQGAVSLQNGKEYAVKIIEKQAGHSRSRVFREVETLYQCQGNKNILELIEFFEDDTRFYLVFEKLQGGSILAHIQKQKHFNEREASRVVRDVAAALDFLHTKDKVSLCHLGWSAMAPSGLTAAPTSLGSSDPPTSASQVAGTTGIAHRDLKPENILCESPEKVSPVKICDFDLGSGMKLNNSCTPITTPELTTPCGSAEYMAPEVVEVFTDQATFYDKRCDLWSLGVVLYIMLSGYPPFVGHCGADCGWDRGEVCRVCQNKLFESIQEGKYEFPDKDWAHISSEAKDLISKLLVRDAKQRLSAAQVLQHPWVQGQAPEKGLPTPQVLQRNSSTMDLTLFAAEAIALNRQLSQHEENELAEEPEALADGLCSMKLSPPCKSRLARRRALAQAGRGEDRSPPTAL
UniProt P09619, sequence (whole entry, looked up): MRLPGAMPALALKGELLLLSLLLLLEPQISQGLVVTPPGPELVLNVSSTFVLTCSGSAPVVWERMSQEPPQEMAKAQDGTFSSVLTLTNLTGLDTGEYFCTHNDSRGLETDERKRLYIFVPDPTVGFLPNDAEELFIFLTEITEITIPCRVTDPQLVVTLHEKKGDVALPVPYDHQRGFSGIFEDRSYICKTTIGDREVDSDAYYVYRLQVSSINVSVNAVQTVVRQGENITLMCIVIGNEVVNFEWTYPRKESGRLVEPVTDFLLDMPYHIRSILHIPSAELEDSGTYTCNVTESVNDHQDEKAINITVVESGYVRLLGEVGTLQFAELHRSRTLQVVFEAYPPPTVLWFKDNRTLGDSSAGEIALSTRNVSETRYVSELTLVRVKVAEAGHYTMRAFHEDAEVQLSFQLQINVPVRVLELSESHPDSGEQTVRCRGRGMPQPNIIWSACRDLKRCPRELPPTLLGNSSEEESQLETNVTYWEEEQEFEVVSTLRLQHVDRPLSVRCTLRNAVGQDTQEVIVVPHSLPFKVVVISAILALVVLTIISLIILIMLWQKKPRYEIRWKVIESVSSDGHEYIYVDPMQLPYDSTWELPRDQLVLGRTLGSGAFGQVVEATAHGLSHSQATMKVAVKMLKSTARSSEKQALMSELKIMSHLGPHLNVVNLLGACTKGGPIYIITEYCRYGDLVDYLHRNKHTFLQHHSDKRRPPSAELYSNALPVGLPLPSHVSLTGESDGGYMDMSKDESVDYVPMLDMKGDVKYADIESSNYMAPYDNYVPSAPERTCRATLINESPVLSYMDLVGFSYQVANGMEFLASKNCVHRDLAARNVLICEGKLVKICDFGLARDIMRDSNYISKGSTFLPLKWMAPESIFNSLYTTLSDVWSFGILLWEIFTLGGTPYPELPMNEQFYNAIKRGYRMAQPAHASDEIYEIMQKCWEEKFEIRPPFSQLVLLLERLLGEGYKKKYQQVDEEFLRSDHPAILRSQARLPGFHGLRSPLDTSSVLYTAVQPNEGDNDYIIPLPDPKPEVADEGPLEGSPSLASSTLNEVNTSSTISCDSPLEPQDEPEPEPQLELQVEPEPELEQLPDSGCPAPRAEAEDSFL
UniProt P07333, sequence (whole entry, looked up): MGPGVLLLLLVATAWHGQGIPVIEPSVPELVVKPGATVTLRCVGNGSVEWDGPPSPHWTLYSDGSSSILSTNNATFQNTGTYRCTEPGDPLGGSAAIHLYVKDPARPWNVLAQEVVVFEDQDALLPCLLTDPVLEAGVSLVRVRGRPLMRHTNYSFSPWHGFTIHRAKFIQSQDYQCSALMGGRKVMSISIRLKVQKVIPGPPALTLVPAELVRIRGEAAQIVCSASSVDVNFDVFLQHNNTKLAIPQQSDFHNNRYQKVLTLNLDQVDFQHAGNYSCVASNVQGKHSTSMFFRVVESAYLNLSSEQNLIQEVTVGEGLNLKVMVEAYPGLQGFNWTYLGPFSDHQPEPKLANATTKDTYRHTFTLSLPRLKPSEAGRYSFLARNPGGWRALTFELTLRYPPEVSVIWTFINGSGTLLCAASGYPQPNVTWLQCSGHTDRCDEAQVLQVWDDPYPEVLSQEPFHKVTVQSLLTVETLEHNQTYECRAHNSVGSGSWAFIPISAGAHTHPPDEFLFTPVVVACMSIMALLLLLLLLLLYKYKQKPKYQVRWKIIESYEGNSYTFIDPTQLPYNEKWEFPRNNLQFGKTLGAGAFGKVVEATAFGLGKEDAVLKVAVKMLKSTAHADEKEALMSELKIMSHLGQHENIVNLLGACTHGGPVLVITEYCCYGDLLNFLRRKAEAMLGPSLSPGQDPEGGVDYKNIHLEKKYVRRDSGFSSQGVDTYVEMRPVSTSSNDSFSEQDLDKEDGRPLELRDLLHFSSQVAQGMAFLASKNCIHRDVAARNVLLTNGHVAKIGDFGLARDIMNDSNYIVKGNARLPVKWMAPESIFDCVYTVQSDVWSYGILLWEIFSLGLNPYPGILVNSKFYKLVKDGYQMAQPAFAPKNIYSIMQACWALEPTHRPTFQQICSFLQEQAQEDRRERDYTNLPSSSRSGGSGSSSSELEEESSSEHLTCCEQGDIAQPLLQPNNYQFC

Set 1 — read-out: enzyme activity; action: inhibitor; tested at: 0.5 µM; relative to: control; quantity: remaining activity
Target: Serine/threonine-protein kinase pim-1 (PIM1, Homo sapiens, UniProt P11309)
UniProt P11309, sequence (whole entry, looked up): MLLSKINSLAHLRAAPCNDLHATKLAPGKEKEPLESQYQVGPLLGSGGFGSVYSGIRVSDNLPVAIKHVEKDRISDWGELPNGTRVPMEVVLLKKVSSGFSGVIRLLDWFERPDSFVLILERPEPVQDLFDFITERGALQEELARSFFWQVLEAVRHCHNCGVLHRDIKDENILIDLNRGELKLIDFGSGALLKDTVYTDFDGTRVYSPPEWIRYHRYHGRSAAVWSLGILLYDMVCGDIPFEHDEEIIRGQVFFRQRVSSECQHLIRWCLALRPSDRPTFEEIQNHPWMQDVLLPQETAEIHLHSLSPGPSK
CC(C)(C)n1nc(Cc2cccc3ccccc23)c2c(N)ncnc21: 103%
CC#CC(=O)Nc1cc2c(Nc3ccc(F)c(Cl)c3)ncnc2cn1: 98.6%
CCCC(=O)Oc1ccc2[nH]c(C(=O)c3cc4ccccc4[nH]3)cc2c1: 100%
Nc1nc(Nc2ccc(S(N)(=O)=O)cc2)nn1C(=O)c1c(F)cccc1F: 97.6%
Nc1nccc(-c2c(-c3ccc(F)cc3)ncn2C2CCNCC2)n1: 97%
Cc1cncc2cccc(S(=O)(=O)N3CCCN(C(=O)CN)C[C@@H]3C)c12: 105%
O=S(=O)(NCCNC/C=C/c1ccc(Br)cc1)c1cccc2cnccc12: 90.1%
CC(=O)c1ccc(N2CCOCC2)cc1O: 97.2%

Set 2 — host: mouse; medium: microsomes or S9; tested at: 2 µM; time: 0.5 h; quantity: remaining compound
CC(C)OC(=O)N1CCC(CNc2ncnc3c(-c4ccc(S(C)(=O)=O)cc4)csc23)CC1: > 99%
Cc1ccc(NC(=O)N2Cc3c(sc4c3CCCC4)-n3cccc3C2c2ccc(N(C)C)cc2)c(C)c1 (stereo not drawn): 19.7%
CC(C(=O)Nc1nnn[nH]1)c1ccc(-c2ccccc2)c(F)c1 (stereo not drawn): 88.2%
COC(=O)c1c(CCc2ccc(OC)cc2)nc(CCc2ccccc2)c(O)c1C(=O)OC: 6.52%
Cc1c(C(=O)O)sc2[nH]c(=O)n(CC(C)C)c(=O)c12: 88.4%

Set 3 — read-out: cell-free assay; method: competition with immobilised ligand; tested at: 1 µM; quantity: remaining binding
SMILES: CC(=O)N1CCC(c2ccc(C(=O)NC3=NCCN3)cc2C(F)(F)F)CC1
Receptor-type tyrosine-protein kinase FLT3 (FLT3, Homo sapiens, UniProt P36888, K663Q): 100%
Macrophage colony-stimulating factor 1 receptor, autoinhibited (CSF1R, Homo sapiens, UniProt P07333): 94%
MAP kinase-interacting serine/threonine-protein kinase 1 (MKNK1, Homo sapiens, UniProt Q9BUB5): 100%
Platelet-derived growth factor receptor beta (PDGFRB, Homo sapiens, UniProt P09619): 95%
Receptor-type tyrosine-protein kinase FLT3 (FLT3, Homo sapiens, UniProt P36888): 100%
Tyrosine-protein kinase ABL1, phosphorylated (ABL1, Homo sapiens, UniProt P00519, Y253F): 90%

Set 4 — method: RNA Bind-n-Seq; molecule type: RNA; medium: in vitro; tested at: not given; relative to: input RNA pool; reading: higher = stronger binding; quantity: bound/input enrichment
Target: RING finger protein unkempt homolog, zinc fingers 1-6, GST-SBP tag (UNK, Homo sapiens, UniProt Q9C0B0, residues 30-357)
Notes: RNA with constant flanks, human and mouse sites, ends assumed
Shared flanks, not repeated: GGGAGUUCUACAGUCCGACGAUC … CAACAGAGGAUUGAGCAUCA
Residues (chain): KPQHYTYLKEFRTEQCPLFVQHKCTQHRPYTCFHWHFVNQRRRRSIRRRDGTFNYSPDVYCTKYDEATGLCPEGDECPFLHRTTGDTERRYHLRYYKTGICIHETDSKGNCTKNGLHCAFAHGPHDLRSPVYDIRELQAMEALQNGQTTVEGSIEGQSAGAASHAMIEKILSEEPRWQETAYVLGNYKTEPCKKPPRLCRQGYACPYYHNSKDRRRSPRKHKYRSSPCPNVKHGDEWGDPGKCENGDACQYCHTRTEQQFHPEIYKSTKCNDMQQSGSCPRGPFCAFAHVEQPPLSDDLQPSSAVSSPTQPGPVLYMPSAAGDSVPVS
UCAUAUGUGGACAUCAAGACUGGCAAGGUUACUUUGGAGUACAGACCUGUUAUCGACAAGACCUUGAAUGAGGCUGACUGUGCCACCGUACCUCCUGCUAUCCGCUCCUACUGAUGAAAC: 0.0718 ratio
UCCAGCGCAGAGCCCCGUCCUGAUUGAUCGCAUCGCGGGGCUCAGAUGACUGUAAAAUGAAUAGAUGAAAUUCUUGCUUCUCGAAGAUUUUCUUGGGCAUCUCCCGGAAAGUGCGUUUUA: 0.218 ratio
GCAGCUAUUCCACAUGCCGCAGAAGAUAUUCAAGGAGAUGACAGGUGGAUGUCUCAGCAUAAUAGGUUUGUUCUGGACUGUAAAGACAAAGAACCAGAUGUGCUGUUUGUGGGGGACUCC: 0.189 ratio
CAUCUACUUGGUUCUUGGGUUGGGUCAUAGAUGCUGCCUGGGCUCUACAGUGGGAGUCUGCAACUCUGUGCAAGGAUCUCAUUCUGAGCACUUUAUGUAUGGCCUGCAGGGAAGGAACAC: 0.146 ratio
CUCAAGCUACCAAAAAGGAAGUGGCAAUAGAUUGACUCAGGAUGUCAGAGCUCGGGAUUUUAGCAUUACUGCGUAAAGACUUUUGAAGGGACAGAAGUGAAGAAAUAAGCUGCAAUUUUG: 0.332 ratio
UGGCCUUGAUUUAGUGACAGUUUAUUCUAAUGGGGACCAUAGGUGUUAUUAGUAAAAAGAUAGUGUACAAGGCCUAAGUUCAGUUUACAUUGUUCUUUGAAAUGAGUUCAUCUUUUGUGU: 5.62 ratio
CUGGUGGAGGAAGAUGAUGAGAUAAACCGAGACUGGUUGGAUUGGACCUAUUCCGCAGCGACGUUUUCUGUUUUCCUCAGCAUCCUUUACUUCUACUCCUCGCUGAGCAGAUUUCUCAUG: 0.0968 ratio
AGCGCGGAUGCGCGGCGUGGCCACGCCCCUUCAGUGCUUGUGACGCAGGCGCCCUGGGCUUUUUGGGCGCGAAAAAGAAGCAGUCCUGGGUUGUACCCGGCGCAGCUGGGAGCGGCUGCU: 0.129 ratio

Repeated from above (set 2):
CC(C(=O)Nc1nnn[nH]1)c1ccc(-c2ccccc2)c(F)c1 (stereo not drawn): 88.2%
COC(=O)c1c(CCc2ccc(OC)cc2)nc(CCc2ccccc2)c(O)c1C(=O)OC: 6.52%
Cc1c(C(=O)O)sc2[nH]c(=O)n(CC(C)C)c(=O)c12: 88.4%
Cc1ccc(NC(=O)N2Cc3c(sc4c3CCCC4)-n3cccc3C2c2ccc(N(C)C)cc2)c(C)c1 (stereo not drawn): 19.7%
